{"data": "Measurements of several laboratories", "note": "Numbered parts are unrelated; each lists some results of a single study."}
{"data": "Study 1", "target": "RNA binding protein fox-1 homolog 2, RRM domain, GST-SBP tag (RBFOX2, Homo sapiens, UniProt O43251-10, residues 100-194)", "technique": "RNA Bind-n-Seq", "molecule type": "RNA", "matrix": "in vitro", "concentration": "365 nM", "notes": "natural RNA segment, single round, ends assumed", "reference": "no-protein control", "reading": "higher = stronger binding", "shared flanks, not repeated": "GGGAGUUCUACAGUCCGACGAUC … UGGAAUUCUCGGGUGCCAA", "Target sequence (chain)": "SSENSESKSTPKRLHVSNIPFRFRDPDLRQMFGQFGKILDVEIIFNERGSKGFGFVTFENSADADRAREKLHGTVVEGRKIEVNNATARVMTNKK"}
{"Sequence": "CAGUUUUUCCUUCGGGGUAUACUAUUUUAGAUACACCUACUUCACAGGAGUACUGGAGGGAUUUGCAAGCUAACGGGCCAAAUGCUUCCAUAGGAAUAAGGCAUGCCCAG", "RBNS enrichment (R)": 2.44}
{"Sequence": "CAUAAACUUCCUGUUCUCCAAAACCUCAAAGAGAUAGAGUUAAUGAGUUGUUGUUUUUUUUUAAAUGGGGGUAGUUUUCUAUCUGUCAUGGGCUCUAGCAUCUACUCCGC", "RBNS enrichment (R)": 0.529}
{"Sequence": "AAAACGUUGUAAGAAGGCAAUAUUAAUCUAGUCACCAUGUACGCACUCUGGAUGGAGGUUCUACAGAGCUGUUGAUUGGUCAACUACUUCUCUUACAUUGUUGACUCAUG", "RBNS enrichment (R)": 0.432}
{"Sequence": "CAGAGCUAUUGUGGAGGGUCAGGAAGGGUGGAGAGGAGCUGGGUUGAAGCGGACUGCUGCGGAUGCAACUCCCAGCUUGCCCACCGCGGGCUGUCUGCUCUCCCUCCUAG", "RBNS enrichment (R)": 0.819}
{"Sequence": "CCUUUGUGUUCUCACUUGCAUAAAGCUAUUCAAGGUACUUUUUAAAAGGCAAGGGUUGAUCCCCGCAGCCCUUCUCUGAAUUCUCACUGCUGAUAUCUGAAUGAAGCAAC", "RBNS enrichment (R)": 0.469}
{"Sequence": "GAUUUUUGAAUGCACGUGCGCAGGAAGGGCUCCUCUUAGAGAAGCAGUCAAACUGUGAAGCACUAAGCUGACCCUGCUUCAAGCAAUUUUGUUUUUACAACUGUUCCUUU", "RBNS enrichment (R)": 2.2}
{"Sequence": "CAUUACAAGUGGCCAAAACCCCUGUUCUCAGUGAAGAACCACAUUGGAUUUGUAUUCUGUUCAGUUGUAGUCUACACUGCAGUCUUAUUCCUGGUUCAAACUACCUCUUU", "RBNS enrichment (R)": 0.279}
{"Sequence": "AACACAGCUAAAGAUCUUCUGAUAUUAUCAGCAAGGGAUGCAAGGACUUUAUUGGAAUCUGGAGAGUUUAACUGCCUUCUCUUGGUCUCCUCACUUACUUCUUAUGAAGU", "RBNS enrichment (R)": 0.187}
{"Sequence": "GAUUUCUUUCUUUGCACCAAAGACAUCAGUCUCCAACAUGUUUCUGUUUUGUUGUUUGAUUCAGCAAAAAUCUCCCAGUGACAACAUCGCAAUAGUUUUUUACUUCUCUU", "RBNS enrichment (R)": 0.527}
{"Sequence": "UUAAAUUGGCUUUGGCCAGUAGCUAAAGUGCAAGACUGAAUUAAUGAGAAGAUAUAUUAAAUGUAGUCAUAGGGGACUGAGGAGCAAGGGUGGCCUUGAAGAGGCCAAAG", "RBNS enrichment (R)": 0.613}
{"Sequence": "AAUUUUCAAUUUAUGGUGAUGAUCUGCUGAUAUGCAUUUAUAAAGUAAGCUCUGUUGUACAGUCUGUCCAAAUGGGUCAAGGUUGCCUUUAGAAGCAAAUAGUGUGAUUU", "RBNS enrichment (R)": 0.487}
{"Sequence": "CCCAGAGGUCAUAGGUGAUGGUCCUACUGCCCAACAGUUGCCUUUUGAAUCCUUAUGUUGAUGAUGGUGUCUUUCUACACACUCACUGCAACUACUCAGGAAUUAUAAAG", "RBNS enrichment (R)": 0.204}
{"data": "Study 2", "target": "Ras GTPase-activating protein-binding protein 1, full length (G3BP1, Homo sapiens, UniProt Q13283)", "technique": "RNA Bind-n-Seq", "molecule type": "RNA", "matrix": "in vitro", "concentration": "200 nM", "notes": "whole 134-nt RNA, ends assumed", "with": "150 mM KCl", "reference": "input library", "reading": "higher = stronger binding", "shared flanks, not repeated": "GGGAGUUCUACAGUCCGACGAUC … UGGAAUUCUCGGGUGUCAAGG", "UniProt Q13283, sequence (whole entry, looked up)": "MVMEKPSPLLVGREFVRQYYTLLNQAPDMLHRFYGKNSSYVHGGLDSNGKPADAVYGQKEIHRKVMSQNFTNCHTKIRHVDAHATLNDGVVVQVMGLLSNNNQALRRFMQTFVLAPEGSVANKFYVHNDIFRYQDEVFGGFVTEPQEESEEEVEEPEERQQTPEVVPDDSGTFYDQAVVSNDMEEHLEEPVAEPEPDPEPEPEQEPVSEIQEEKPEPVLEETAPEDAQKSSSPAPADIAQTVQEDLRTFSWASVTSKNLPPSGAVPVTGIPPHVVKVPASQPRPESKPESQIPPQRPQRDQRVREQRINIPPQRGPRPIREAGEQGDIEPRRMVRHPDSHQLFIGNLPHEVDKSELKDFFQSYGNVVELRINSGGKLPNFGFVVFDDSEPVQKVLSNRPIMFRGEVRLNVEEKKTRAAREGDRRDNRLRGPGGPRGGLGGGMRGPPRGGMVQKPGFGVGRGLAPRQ"}
{"Sequence": "UGGCCCUGGGGGCAUGCGGGGAGGAAGAGGUGGCCUCAUGGAUCGUGGUGGUCCCGGUGGAAUGUUCAGAGGUGGCCGUGGUGGAGACAG", "log2 enrichment": 0.143}
{"Sequence": "AGUCCUGUGCUACACAUCGUAUGUACCGAAUCGGGGAAAAGGGGAAAAGGAAAAGGGAAAGUAUUAUGUUACGCCGUUCGGAUCUGCACU", "log2 enrichment": -0.345}
{"Sequence": "UAACUUUAGAGGAGGAUCUGAUGGAUAUGGCAGUGGACGUGGAUUUGGGGAUGGCUAUAAUGGGUAUAGAGGAGGACCUGGAGGUGGCAA", "log2 enrichment": 0.215}
{"Sequence": "UCCUGUGCUACACAUCGUAUGUACCGAAUCGGGUUUUUUGGUUUUUUGGGGUUUUUUGGGAAAGUAUUAUGUUACGCCGUUCGGAUCUGC", "log2 enrichment": -0.373}
{"Sequence": "AAGUCCUGUGCUACACAUCGUAUGUACCGAAUCAAAUUUUUAAAUUUAAAUUUAAAAAAGUAUUAUGUUACGCCGUUCGGAUCUGCACUU", "log2 enrichment": -1.72}
{"Sequence": "UGGCCCUGGUGGCAUGCGGGGAGGAAGAGGUGGCCUCAUGGAUCGUGGUGGUCCCGGUGGAAUGUUCAGAGGUGGCCUUGGUGGAGACAG", "log2 enrichment": 0.271}
{"Sequence": "CCUCAAGUCCUGUGCUACACAUCGUAUGUACCGAAUCGGCGGGGCGGGGCGGAAAGUAUUAUGUUACGCCGUUCGGAUCUGCACUUCCAG", "log2 enrichment": 0.225}
{"Sequence": "CUGUGCUACACAUCGUAUGUACCGAAUCGGGGCCCCCCCGGGCCCCCCCGGGGCCCCCCCGGAAAGUAUUAUGUUACGCCGUUCGGAUCU", "log2 enrichment": -1.4}
{"Sequence": "CCUCAAGUCCUGUGCUACACAUCGUAUGUACCGAAUCGGUGGAAAAAGGUGGAAAGUAUUAUGUUACGCCGUUCGGAUCUGCACUUCCAG", "log2 enrichment": -0.035}
{"Sequence": "GCAGGAAGUAAAAACAAAUGGAAAUGCCUCGGAUAGUGGCAGGGGUGGGGGUUGCUAAGGAAAGGGUGGGAUGGGAGUGGGUAAAGAGUU", "log2 enrichment": 1.12}
{"data": "Study 3", "target": "Interferon regulatory factor 7, full length, phosphomimetic (IRF7, Homo sapiens, UniProt Q92985, residues 1-503, S471D/S472D/S475D/S476D/S477D/S483D/S484D/S487D)", "technique": "protein-binding microarray", "molecule type": "double-stranded DNA, one strand shown", "matrix": "in vitro", "concentration": "2200 nM top", "notes": "60-bp whole probe", "with": "salmon DNA 0.4 mg/ml", "reference": "random background probes", "reading": "higher = stronger binding", "shared flanks, not repeated": "GCCTAGCAC … GTCTTGATTCGCTTGACGCTGCTG", "Construct (chain)": "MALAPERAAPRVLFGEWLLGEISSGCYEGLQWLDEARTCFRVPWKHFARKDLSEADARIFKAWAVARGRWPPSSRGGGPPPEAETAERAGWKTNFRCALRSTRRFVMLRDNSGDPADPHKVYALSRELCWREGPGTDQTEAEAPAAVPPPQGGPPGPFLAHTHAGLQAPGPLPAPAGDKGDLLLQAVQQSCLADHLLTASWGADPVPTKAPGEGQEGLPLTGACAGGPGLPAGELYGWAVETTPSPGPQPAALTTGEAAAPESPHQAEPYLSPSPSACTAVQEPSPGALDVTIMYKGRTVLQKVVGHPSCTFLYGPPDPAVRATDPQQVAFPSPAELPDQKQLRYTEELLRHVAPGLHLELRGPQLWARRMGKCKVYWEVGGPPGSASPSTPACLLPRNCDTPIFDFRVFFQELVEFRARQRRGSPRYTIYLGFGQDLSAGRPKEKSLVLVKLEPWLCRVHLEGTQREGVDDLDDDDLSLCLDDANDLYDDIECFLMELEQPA"}
{"Sequence": "TCACTCCTCTCTCTTTCACTGTGCTAG", "fitted relative affinity [z-score]": 2.51}
{"Sequence": "GACGAACTGAGATTCGAGACGTGCTAG", "fitted relative affinity [z-score]": -0.092}
{"Sequence": "TCACATTTTCGTTTTGTACTGTGCTAG", "fitted relative affinity [z-score]": 12}
{"Sequence": "GACGGTTTTGGTCTCGGGACGTGCTAG", "fitted relative affinity [z-score]": 1.15}
{"Sequence": "GGAGGCCTCTTCATTCATTAAGTGCTA", "fitted relative affinity [z-score]": -0.522}
{"Sequence": "TCAGGTATCGGTATCGGTTAGTGCTAG", "fitted relative affinity [z-score]": 1.66}
{"Sequence": "GACGGTCTCCTACTCCTGACGTGCTAG", "fitted relative affinity [z-score]": 1.12}
{"Sequence": "CTGAATGTCCTCCTCTCTCTGTGCTAG", "fitted relative affinity [z-score]": 1.24}
{"Sequence": "TCATTTACCACATTCTCACTGTGCTAG", "fitted relative affinity [z-score]": 2.39}
{"Sequence": "GACGGACTGGACGCTGGGGACGTGCTA", "fitted relative affinity [z-score]": -1.04}
{"Sequence": "TCATGTATTTGTCCCTAACTGTGCTAG", "fitted relative affinity [z-score]": 1.9}
{"Sequence": "TTAGGTCTCGTTTTCGGTTAGTGCTAG", "fitted relative affinity [z-score]": 6.93}
{"Sequence": "GACGGGCTGGGACTGGGGACGTGCTAG", "fitted relative affinity [z-score]": -1.22}
{"Sequence": "GGTATTATTTATTGTAGCCTCGTGCTA", "fitted relative affinity [z-score]": 0.405}
{"Sequence": "TCATCTCTCATGTTACAACTGTGCTAG", "fitted relative affinity [z-score]": 1.78}
{"Sequence": "TCAGACATCTTCATCAAACTGTGCTAG", "fitted relative affinity [z-score]": 0.407}
{"Sequence": "TCACTTCTCTTTTTGCTACTGTGCTAG", "fitted relative affinity [z-score]": 3.24}
{"Sequence": "TAAGGACTGGGGACTGGGTTAGTGCTA", "fitted relative affinity [z-score]": -1.13}
{"Sequence": "TATTATATATTTATGTATACGTGCTAG", "fitted relative affinity [z-score]": 0.88}
{"Sequence": "TTAGGTCTCGGTATCGTTTAGTGCTAG", "fitted relative affinity [z-score]": 0.957}
{"data": "Study 4", "target": "Histone acetyltransferase KAT6A, winged helix 1, GST fusion (KAT6A, Homo sapiens, UniProt Q92794, residues 1-85)", "technique": "protein binding microarray", "molecule type": "double-stranded DNA, one strand shown", "matrix": "in vitro", "concentration": "not given", "notes": "8-mer, flanks averaged, mean of 2 arrays, mostly near background", "reference": "not given", "reading": "higher = stronger binding", "Target sequence (chain)": "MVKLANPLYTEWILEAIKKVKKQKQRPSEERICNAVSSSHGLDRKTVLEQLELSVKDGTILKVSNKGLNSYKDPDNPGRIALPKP"}
{"Sequence": "ATGCTTGC", "E-score": 0.0399}
{"Sequence": "GCCTGGAA", "E-score": -0.246}
{"Sequence": "CATTGGGC", "E-score": -0.0948}
{"Sequence": "CCTAAACG", "E-score": 0.0762}
{"Sequence": "AAAATGCC", "E-score": -0.101}
{"Sequence": "ACATGACC", "E-score": 0.0964}
{"Sequence": "ATGTATCC", "E-score": -0.0208}
{"Sequence": "GAATCGGA", "E-score": -0.00984}
{"Sequence": "ACAGCTAG", "E-score": -0.165}
{"Sequence": "CATGTAAA", "E-score": 0.0168}
{"Sequence": "CCTGAGAC", "E-score": -0.197}
{"Sequence": "CTAATAAG", "E-score": -0.136}
{"Sequence": "ATTCTCCA", "E-score": -0.117}
{"Sequence": "ATTTGCGC", "E-score": 0.218}
{"Sequence": "TACTGGGA", "E-score": -0.0786}
{"Sequence": "GCATGCGA", "E-score": 0.169}
{"Sequence": "CTGTGATA", "E-score": -0.149}
{"Sequence": "CAGGAACC", "E-score": -0.199}
{"Sequence": "GTCGAGTA", "E-score": -0.018}
{"Sequence": "CCTTATGA", "E-score": -0.0694}
{"Sequence": "GATTAAAA", "E-score": -0.0905}
{"Sequence": "GCGAGGCC", "E-score": 0.0946}
{"Sequence": "CTGAGGGA", "E-score": -0.17}
{"Sequence": "GCACTGGA", "E-score": -0.0994}
{"Sequence": "GCCGGGGA", "E-score": 0.304}
{"note": "Repeated from above (study 4):"}
{"Sequence": "ATTTGCGC", "E-score": 0.218}
{"Sequence": "TACTGGGA", "E-score": -0.0786}
{"Sequence": "GCATGCGA", "E-score": 0.169}
{"Sequence": "CTGTGATA", "E-score": -0.149}
{"Sequence": "CAGGAACC", "E-score": -0.199}
{"Sequence": "GTCGAGTA", "E-score": -0.018}
{"Sequence": "CCTTATGA", "E-score": -0.0694}
{"Sequence": "GATTAAAA", "E-score": -0.0905}
